Experimental data gathered from unrelated publications.
Compare with care: the assays were run in different laboratories. Several values in a cell are separate wells, animals, samples, runs or records.
Target: Serine/threonine-protein kinase N1 (PKN1, Homo sapiens, UniProt Q16512)

SMILES	test	system	setting	how to read	quantity	value
COCC12C(=O)NC3C4(C(OC)CC1O)C1CC5(O)C(OC)C(O)C(OC(C)=O)(C1C5OC(=O)c1ccccc1)C3(O)C(OC)C24 (centres unmarked)	kinase activity, inhibitor, ProQinase kinase profiling	–	25 µM	baseline: control	remaining activity	104% and 97%
C=CC(=O)N1Cc2nc(-c3cc(-c4cc(Cl)cnc4Cl)c(F)cc3F)n(-c3ccncn3)c2C1	cell-free assay, inhibitor	–	1 µM	–	inhibition	1.7%
CNC(=O)C1CCN(c2cc(C)c(F)cc2NC(=O)c2ccc(-c3cc(O)ccc3C)c(C)c2)CC1	binding, competition with immobilised ligand	–	1 µM	–	remaining binding	83%
Nc1ncc2c(n1)-c1c([nH]c3ccc(C4=CCOCC4)cc13)CCC2	binding, competition with immobilised ligand	–	1 µM	–	remaining binding	100%
CNC(=O)C[C@H](Cc1ccc(C#N)cc1)NC(=O)c1cc(-c2ccc(CN[C@H](C)c3ccc(C)cc3)o2)ccc1Cl	enzyme activity, inhibitor	–	1 µM	–	activity vs control	91%
C=CC(=O)Nc1cccc(-c2cnc3[nH]cc(C(=O)NC(C)(C)C)c3n2)c1	enzyme activity, inhibitor	–	0.1 µM	–	inhibition	-5%
C=CC(=O)N1CCc2ccc(-n3c(=O)ccc4cnc5ccc(-c6cnn(C)c6)cc5c43)cc21	KINOMEscan	–	1 µM	baseline: DMSO control	remaining binding	100%
Cc1cccc(O[C@H]2CCC[C@@H](C(C)CNCc3ccncc3)C2)c1 (relative stereo)	enzyme activity, inhibitor	–	1 µM	–	inhibition	-2%
CNC1C[S+]2CC[S+]3CC[S+](C1)[Ru-4]321([N]=C=S)[n]2c3ccc(OC)cc3c3c4c(c5cc(F)c[n+]1c5c32)C(=O)NC4=O (centres unmarked)	KinomeScan	–	0.1 µM	baseline: untreated	remaining binding	88%
COc1cc(Nc2nccc(-c3cnn4nc(OC)ccc34)n2)cc(C(F)(F)F)c1	binding, competition with immobilised ligand	–	1 µM	–	remaining binding	100%
Cc1cnc2nc1Nc1cccc(c1)COC/C=C/COCc1cc(ccc1OCCN1CCOCC1)N2	binding	–	0.1 µM	–	remaining binding	91%
O=C(Cc1ccc(OCc2ccccc2)cc1)NC1(C(=O)O)CCN(C(=O)c2ccc(-c3cccc(Cl)c3)cc2)CC1	enzyme activity, inhibitor	–	10 µM	–	activity vs control	114%
N[C@H]1CC[C@H](Nc2nccc(-c3cccnc3Oc3ccc(NC(=O)NC4CC4)c4ccccc34)n2)CC1	kinobead competition pulldown	HEK293/HCT116 lysate mixture	10 µM, 1 h, 4 °C	lower = stronger competition	log2 LFQ intensity	22.3 and 22.4 and 22.7
NC(=O)C[C@H]1CCc2sc3ncnc(O[C@H]4CC[C@H](N5CCOCC5)CC4)c3c21	enzyme activity, inhibitor	–	10 µM	–	inhibition	6%
